Measured values collected from several papers.
Lines come from different studies, so protocols differ. ± marks the error that the study gave.

Cc1ncsc1-c1ccc(CNC(=O)[C@@H]2C[C@@H](O)CN2C(=O)[C@@H](NC(=O)CCCCCCCCCC(=O)N2CCN(CC[C@H](NC(=O)C3(N)CCN(c4ncnc5[nH]ccc45)CC3)c3ccc(Cl)cc3)CC2)C(C)(C)C)cc1  Tmax (male Swiss albino mice, plasma; intraperitoneal, 75 mg/kg, single dose): 60 min
NC(=O)c1cc(Oc2ccc(NC(=O)Nc3ccc(Cl)c(C(F)(F)F)c3)c(F)c2)cc[n+]1[O-]  Tmax (Oatp1b2 knockout mice, plasma; oral, 10 mg/kg regorafenib): 450 min
CC(C)(C)c1sc2ncnc(Oc3c(F)cccc3OC(F)(F)F)c2c1-c1ccc(Cl)cc1  Tmax (wild-type mice, plasma; oral, 30 mg/kg): 60 min
COCc1cc(C(=O)Nc2cc([C@H]3CC[C@@H](OC(=O)NC(C)C)C3)[nH]n2)n(C)n1  Tmax (OVCAR-3 xenograft, NOD/SCID gamma mice, plasma; oral, 15 twice daily, PK/PD study): 450 min
CCN1/C(=C/C(C)=O)Sc2ccc(F)cc21  Tmax (male mice, blood and brain; intraperitoneal): 30 min
COc1cc([C@@H]2Oc3ccc([C@H]4Oc5cc(O)cc(O)c5C(=O)[C@@H]4O)cc3O[C@H]2CO)ccc1O  Tmax (FVB wild-type mice, plasma; oral gavage, 500 mg/kg silymarin, median): 15 min
CC(C)(C)c1ccc(O)c(CN(Cc2cc(C(C)(C)C)ccc2O)C2CCC(NC(N)=O)CC2)c1 (stereo not shown)  Tmax (C57BL/6 mice, male, plasma and brain; intraperitoneal, 25 mg/kg): ≤ 30 min
COc1cc([C@@H]2Oc3cc([C@H]4Oc5cc(O)cc(O)c5C(=O)[C@@H]4O)ccc3O[C@H]2CO)ccc1O  Tmax (FVB wild-type mice, plasma; oral gavage, 500 mg/kg silymarin, median): 15 min
CNC(=O)c1cc(Oc2ccc(NC(=O)Nc3ccc(Cl)c(C(F)(F)F)c3)c(F)c2)cc[n+]1[O-]  Tmax (Oatp1b2 knockout mice, plasma; oral, 10 mg/kg regorafenib): 348 ± 112 min
CCN(c1cc(-c2ccc(CN3CCOCC3)cc2)cc(C(=O)NCc2c(C)cc(C)[nH]c2=O)c1C)C1CCOCC1  Tmax (female CB17 SCID mice, HT-1376 xenograft, plasma; 75 mg/kg, day 1): 30 min
CN[C@@H](C)C(=O)N[C@H]1CN(C(=O)CC(C)C)CC[C@H]2CC[C@@H](C(=O)NC(c3ccccc3)c3ccccc3)N2C1=O  Tmax (SCID mice, MDA-MB-231 xenograft, blood, lung, kidney, liver; oral): 15 min
CN1C[C@H](COc2nccc3c(NCc4ccco4)cc(Cl)nc23)OC1=O  Tmax (C57BL/6 mice, plasma; oral, 10 mg/kg): 22.8 min
CCN1CCN(Cc2ccc(NC(=O)c3ccc(C)c(NC(=O)c4cncc(-c5cccs5)c4)c3)cc2C(F)(F)F)CC1  Tmax (C57BL/6 mice, epithelial lining fluid; intraperitoneal, 15 mg/kg): 15 min
Cc1c(C(=O)O)ccc2c3n(nc12)[C@@H]1[C@H](C3)N(CC2CC2)[C@@]2(C(=O)Nc3cc(Cl)ccc32)[C@H]1c1cccc(Cl)c1F  Tmax (female BALB/c nude mice, SJSA-1 xenograft, plasma; oral, 2 mg/kg once daily, mean): 144 min
Nc1ncn([C@H]2C[C@H](O)[C@@H](CO)O2)c(=O)n1  Tmax (UHPLC-MS/MS; C57BL/6 mice, female, plasma; oral, 0.4 mg/kg): 15 min
CCc1nc(C(N)=O)c(Nc2ccc(N3CCC(N4CCN(C)CC4)CC3)c(OC)c2)nc1NC1CCOCC1  Tmax (female FVB mice, OCT1/2 knockout, plasma; oral, 10 mg/kg, single dose): 360 min

For quick reference, copied from above:
Cc1ncsc1-c1ccc(CNC(=O)[C@@H]2C[C@@H](O)CN2C(=O)[C@@H](NC(=O)CCCCCCCCCC(=O)N2CCN(CC[C@H](NC(=O)C3(N)CCN(c4ncnc5[nH]ccc45)CC3)c3ccc(Cl)cc3)CC2)C(C)(C)C)cc1  Tmax (male Swiss albino mice, plasma; intraperitoneal, 75 mg/kg, single dose): 60 min
NC(=O)c1cc(Oc2ccc(NC(=O)Nc3ccc(Cl)c(C(F)(F)F)c3)c(F)c2)cc[n+]1[O-]  Tmax (Oatp1b2 knockout mice, plasma; oral, 10 mg/kg regorafenib): 450 min
CC(C)(C)c1sc2ncnc(Oc3c(F)cccc3OC(F)(F)F)c2c1-c1ccc(Cl)cc1  Tmax (wild-type mice, plasma; oral, 30 mg/kg): 60 min
